{"data": "Assay results gathered from unrelated publications", "note": "Each numbered part is a random draw from the data of one study; scales do not carry over between parts. Positions count from the first letter of the parent shown."}
{"data": "Series 1", "target": "ABI1, truncated, D143A, DHFR fusion (Arabidopsis thaliana)", "technique": "DHFR PCA, deep sequencing", "medium": "yeast", "notes": "methotrexate growth selection, single substitutions", "added": "(+)-ABA 4.8 µM", "reference": "wild-type fitted maximum", "direction": "higher = stronger binding", "starting sequence": "PYL1, truncated, DHFR fusion (Arabidopsis thaliana); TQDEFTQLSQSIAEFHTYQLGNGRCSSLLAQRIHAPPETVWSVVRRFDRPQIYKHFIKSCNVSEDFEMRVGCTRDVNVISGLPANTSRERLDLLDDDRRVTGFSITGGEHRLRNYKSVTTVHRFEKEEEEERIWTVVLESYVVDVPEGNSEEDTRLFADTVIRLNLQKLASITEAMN"}
{"Change": "L156A", "relative binding score": "74.2%"}
{"Change": "V145S", "relative binding score": "-2.4%"}
{"Change": "T73E", "relative binding score": "74.1%"}
{"Change": "S150N", "relative binding score": "68.1%"}
{"Change": "Q19R", "relative binding score": "73.7%"}
{"Change": "T135R", "relative binding score": "-6.5%"}
{"Change": "D48P", "relative binding score": "-7.58%"}
{"Change": "V100Q", "relative binding score": "-2.73%"}
{"Change": "R88Q", "relative binding score": "75.6%"}
{"data": "Series 2", "target": "RING finger protein unkempt homolog, zinc fingers 1-6, GST-SBP tag (UNK, Homo sapiens, UniProt Q9C0B0, residues 30-357)", "technique": "RNA Bind-n-Seq", "molecule type": "RNA", "medium": "in vitro", "tested at": "not given", "notes": "RNA with constant flanks, human and mouse sites, ends assumed", "reference": "input RNA pool", "direction": "higher = stronger binding", "shared flanks, not repeated": "GGGAGUUCUACAGUCCGACGAUC … CAACAGAGGAUUGAGCAUCA", "Construct (chain)": "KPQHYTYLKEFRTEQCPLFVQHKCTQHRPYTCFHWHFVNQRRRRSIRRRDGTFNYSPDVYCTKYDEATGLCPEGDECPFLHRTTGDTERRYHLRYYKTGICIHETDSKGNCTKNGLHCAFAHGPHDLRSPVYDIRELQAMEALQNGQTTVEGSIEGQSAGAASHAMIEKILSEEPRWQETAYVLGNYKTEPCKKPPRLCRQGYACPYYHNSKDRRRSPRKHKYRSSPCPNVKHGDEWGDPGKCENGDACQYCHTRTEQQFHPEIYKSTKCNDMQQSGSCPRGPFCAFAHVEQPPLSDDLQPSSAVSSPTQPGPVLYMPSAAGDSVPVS"}
{"Sequence": "CAAAGCUACCCUCUGAUGGGGUCCCCCUUGCUAAUAACAUCCAUCCUUCUGACCUAUGUGUACUUCAUCCUAUCGCUUGGGCCUCGAAUCAUGGCUAAUCGGAAGCCCUUCCAACUUCGA", "bound/input enrichment [ratio]": 0.321}
{"Sequence": "UAUAAGCUGUCGGGGAACCUGACACUGCUGCGGGCCCACGUCACGGGCCCUGUGGAGGACAACGAGAAGUGCUACCCGCCGCCCAGCGUGCAGUCCUGCCCCCACGGCCUGGGCAGUACU", "bound/input enrichment [ratio]": 0.111}
{"Sequence": "AAUGUCCAAAUCUGUGUUUCCCCCUGCCCUCCCAGACUGUGUGGCCAGUUGAAAGUGUCUGGUUUGUGUUCAUCUCUCCCUCAUUUCUGGAGCAGGGCCUGAGACCCUGCCACAUCUCCU", "bound/input enrichment [ratio]": 0.374}
{"Sequence": "UCUUCAGAUAUGAAGAUGACUCAGCUGUUCACCAAAGUUGAAUCAGAGGAUACAAGCUGCCUUUUUGAUAAGCUUAAGAAGGAGCCUGAUGCUCUCACUCUGCUGGCUCCAGCUGCCGGC", "bound/input enrichment [ratio]": 1.16}
{"Sequence": "UUGUGGUGCGCUGUCUUCCCGCUUGCGUCAGGGACCUGCCCGACUCAGUGGCCGCCAUGGCAUCAGAUGAAGGCAAACUUUUUGUUGGAGGGCUGAGUUUUGACACCAAUGAGCAGUCGC", "bound/input enrichment [ratio]": 0.12}
{"Sequence": "GCACGUCAGAAGAUGACCCUUGAGUCAUUCUCUAAGGUGCCGCCUUUGAUUGCAAGCUUUGUUAGGUCGAAGAGAAAGGAAGACUCUCCGAACCUAAGGGAAGCGUUGGAGAACGAAUUC", "bound/input enrichment [ratio]": 0.0621}
{"Sequence": "AGGCUCCGGACAUGGACAUCUUCCAGCAACAGAUCUCGAGAAGACAGCUGGCUAAAAUCCUUAUUUGUCCGGAAAGUUGAUCCAAGAAAAGAUGCCCACUCCAAUCUCCUAGCCAAAAAG", "bound/input enrichment [ratio]": 0.0555}
{"Sequence": "GGCCAACCAAACCCUUUGAAAAAUAUUCUAAAUGAAAAUGACAUAGUAUUCAUAGUGGAAAAAGUGCCUUUAGAAAAGGAAGAAACAAGUCAUAUUGAAGAACUUCAAUCUGAAGAAACU", "bound/input enrichment [ratio]": 0.309}
{"Sequence": "AACGGAGAACUGGAAGAUAAGCCUCCAGCACCUCCUGUGCGAAUGAGCAGCACCAUCUUUAGCACUGGAGGCAAAGACCCUUUGUCAGCCAAUCACAGUUUGAAACCUUUGCCCUCUGUU", "bound/input enrichment [ratio]": 0.139}
{"Sequence": "UUUCACAGAGGCUGACCACCUUACACUGCUGGGUGGUCACAACUGCUCACCAUGUGAACAUAGUACCUCAGUUCUGUCCUUGGCUGCAAUCGUUGUGUGCUCAGUGUUUUCUCAUAGGCA", "bound/input enrichment [ratio]": 0.129}
{"Sequence": "CUGAGGUUGUGGGGUGAUCAUGGGCAAGAGGCUUUAGAAUCUGCUCAUGUUUGCCUAAUAAAUGCAACAGCCACAGGAACUGAAAUUCUUAAAAACUUGGUACUACCAGGUAUUGGUUCG", "bound/input enrichment [ratio]": 0.138}
{"data": "Series 3", "target": "Interferon regulatory factor 3, full length, phosphomimetic (IRF3, Homo sapiens, UniProt Q14653, residues 1-427, S386D/S396D/S398D/S402D/T404D/S405D)", "technique": "protein-binding microarray", "molecule type": "double-stranded DNA, one strand shown", "medium": "in vitro", "tested at": "2540 nM top", "notes": "60-bp whole probe", "added": "salmon DNA 0.4 mg/ml", "reference": "random background probes", "direction": "higher = stronger binding", "shared flanks, not repeated": "GCCTAGCAC … GTCTTGATTCGCTTGACGCTGCTG", "Residues (chain)": "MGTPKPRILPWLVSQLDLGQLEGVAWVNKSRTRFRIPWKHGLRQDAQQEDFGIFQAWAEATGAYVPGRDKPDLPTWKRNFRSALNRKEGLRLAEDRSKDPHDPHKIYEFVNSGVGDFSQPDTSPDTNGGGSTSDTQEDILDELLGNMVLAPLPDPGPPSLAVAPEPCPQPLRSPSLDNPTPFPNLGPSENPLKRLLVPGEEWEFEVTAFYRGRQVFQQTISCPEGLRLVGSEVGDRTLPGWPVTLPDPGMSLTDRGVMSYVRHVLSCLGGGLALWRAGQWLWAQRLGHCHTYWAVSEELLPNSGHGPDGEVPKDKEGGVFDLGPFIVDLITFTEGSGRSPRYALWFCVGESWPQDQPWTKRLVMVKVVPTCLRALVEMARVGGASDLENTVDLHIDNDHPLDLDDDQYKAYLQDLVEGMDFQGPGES"}
{"Sequence": "TCAATTATTGCTTCCTCACTGTGCTAG", "fitted relative affinity": "0.343 z-score"}
{"Sequence": "GACTGTCTCCTTCTCCTGACGTGCTAG", "fitted relative affinity": "4.1 z-score"}
{"Sequence": "GACGGTATCGGTCTCGGTACGTGCTAG", "fitted relative affinity": "4.85 z-score"}
{"Sequence": "GATGGTTTCGGTATCGGGACGTGCTAG", "fitted relative affinity": "7.91 z-score"}
{"Sequence": "TTAGAACTGGGGTATCGATTGGTGCTA", "fitted relative affinity": "-0.693 z-score"}
{"Sequence": "GACGACATCGGGTTTCGAGACGTGCTA", "fitted relative affinity": "0.38 z-score"}
{"Sequence": "CACGATTTCAGACTGGAGACGTGCTAG", "fitted relative affinity": "0.602 z-score"}
{"Sequence": "TTAGGACCGGACACTGGGTTAGTGCTA", "fitted relative affinity": "-0.403 z-score"}
{"Sequence": "TTTGATCTCAGACTGGATTAGTGCTAG", "fitted relative affinity": "0.0566 z-score"}
{"Sequence": "TCCATTTTCAGAATTTACTTGTGCTAG", "fitted relative affinity": "2.92 z-score"}
{"Sequence": "CACGGTATCGGGTATCGGGACGTGCTA", "fitted relative affinity": "1.44 z-score"}
{"Sequence": "TTCTTAATGCTTCTGGGCCAGTGCTAG", "fitted relative affinity": "0.227 z-score"}
{"Sequence": "TCAGTTTTTACTTTCTGACTGTGCTAG", "fitted relative affinity": "2.75 z-score"}
{"Sequence": "TAAGATTTCGGGTATCGATTAGTGCTA", "fitted relative affinity": "1.52 z-score"}
{"Sequence": "TTAGGTTTCCACTATCGGTTAGTGCTA", "fitted relative affinity": "3.19 z-score"}
{"Sequence": "TCACCTGTCTACATGGGACTGTGCTAG", "fitted relative affinity": "0.771 z-score"}
{"Sequence": "GAGGGTATCGACTATCGGGACGTGCTA", "fitted relative affinity": "-0.294 z-score"}
{"Sequence": "GACGGTTTCCTACCGCTGACGTGCTAG", "fitted relative affinity": "4.26 z-score"}
{"Sequence": "ACAGGACAGTCCCATCTACCGTGCTAG", "fitted relative affinity": "0.832 z-score"}
{"Sequence": "AGTAGCTGGGATTACAGGCAGTGCTAG", "fitted relative affinity": "-0.827 z-score"}
{"Sequence": "TCAGATTTCAATTAGAAACTGTGCTAG", "fitted relative affinity": "1.8 z-score"}
{"Sequence": "GACGGTATCGGGTTTCTGGACGTGCTA", "fitted relative affinity": "2.42 z-score"}
{"Sequence": "GACGGTTTCGACGATCGGGACGTGCTA", "fitted relative affinity": "1.81 z-score"}
{"Sequence": "TTAGGTTTCGGGACTGGGTTCGTGCTA", "fitted relative affinity": "4.47 z-score"}
{"Sequence": "GACGAACTGAGACTGGTGACGTGCTAG", "fitted relative affinity": "-0.246 z-score"}
{"data": "Series 4", "target": "CCNB3, cyclin fold, Cln2 fusion (human)", "technique": "yeast growth competition, sequencing", "medium": "yeast", "notes": "weak parent motif", "reference": "not given", "direction": "higher = stronger binding", "starting sequence": "EXO1 docking peptide (human); KPECGRVQRAIFQ; partner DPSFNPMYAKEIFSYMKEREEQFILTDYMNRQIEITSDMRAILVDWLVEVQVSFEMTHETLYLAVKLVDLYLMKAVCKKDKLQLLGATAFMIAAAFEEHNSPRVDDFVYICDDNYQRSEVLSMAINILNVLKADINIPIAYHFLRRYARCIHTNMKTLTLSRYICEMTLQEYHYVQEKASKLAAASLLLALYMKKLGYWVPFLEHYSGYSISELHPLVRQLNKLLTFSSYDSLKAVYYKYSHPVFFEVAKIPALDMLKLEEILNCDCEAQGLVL"}
{"Change": "C4A", "normalised enrichment score": -0.0491}
{"Change": "I11A", "normalised enrichment score": -0.0552}
{"Change": "F12A", "normalised enrichment score": 0.247}
{"Change": "V7A", "normalised enrichment score": 0.549}
{"Change": "K1A", "normalised enrichment score": -0.184}
{"Change": "Q13A", "normalised enrichment score": 0.0815}
